Measurements pooled from the literature.
Compare with care: the assays were run in different laboratories.
Sequence of UniProt Q13258 (whole entry, looked up): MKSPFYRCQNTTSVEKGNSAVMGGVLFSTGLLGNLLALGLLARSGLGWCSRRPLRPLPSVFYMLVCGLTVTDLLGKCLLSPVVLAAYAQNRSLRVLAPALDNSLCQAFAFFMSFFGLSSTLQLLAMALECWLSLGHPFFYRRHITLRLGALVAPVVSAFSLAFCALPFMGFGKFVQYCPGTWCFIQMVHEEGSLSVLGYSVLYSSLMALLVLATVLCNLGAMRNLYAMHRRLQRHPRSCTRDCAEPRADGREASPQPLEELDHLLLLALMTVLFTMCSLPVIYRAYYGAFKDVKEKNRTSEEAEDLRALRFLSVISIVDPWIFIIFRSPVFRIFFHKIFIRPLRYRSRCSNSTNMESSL
Sequence of UniProt Q9H2X6 (whole entry, looked up): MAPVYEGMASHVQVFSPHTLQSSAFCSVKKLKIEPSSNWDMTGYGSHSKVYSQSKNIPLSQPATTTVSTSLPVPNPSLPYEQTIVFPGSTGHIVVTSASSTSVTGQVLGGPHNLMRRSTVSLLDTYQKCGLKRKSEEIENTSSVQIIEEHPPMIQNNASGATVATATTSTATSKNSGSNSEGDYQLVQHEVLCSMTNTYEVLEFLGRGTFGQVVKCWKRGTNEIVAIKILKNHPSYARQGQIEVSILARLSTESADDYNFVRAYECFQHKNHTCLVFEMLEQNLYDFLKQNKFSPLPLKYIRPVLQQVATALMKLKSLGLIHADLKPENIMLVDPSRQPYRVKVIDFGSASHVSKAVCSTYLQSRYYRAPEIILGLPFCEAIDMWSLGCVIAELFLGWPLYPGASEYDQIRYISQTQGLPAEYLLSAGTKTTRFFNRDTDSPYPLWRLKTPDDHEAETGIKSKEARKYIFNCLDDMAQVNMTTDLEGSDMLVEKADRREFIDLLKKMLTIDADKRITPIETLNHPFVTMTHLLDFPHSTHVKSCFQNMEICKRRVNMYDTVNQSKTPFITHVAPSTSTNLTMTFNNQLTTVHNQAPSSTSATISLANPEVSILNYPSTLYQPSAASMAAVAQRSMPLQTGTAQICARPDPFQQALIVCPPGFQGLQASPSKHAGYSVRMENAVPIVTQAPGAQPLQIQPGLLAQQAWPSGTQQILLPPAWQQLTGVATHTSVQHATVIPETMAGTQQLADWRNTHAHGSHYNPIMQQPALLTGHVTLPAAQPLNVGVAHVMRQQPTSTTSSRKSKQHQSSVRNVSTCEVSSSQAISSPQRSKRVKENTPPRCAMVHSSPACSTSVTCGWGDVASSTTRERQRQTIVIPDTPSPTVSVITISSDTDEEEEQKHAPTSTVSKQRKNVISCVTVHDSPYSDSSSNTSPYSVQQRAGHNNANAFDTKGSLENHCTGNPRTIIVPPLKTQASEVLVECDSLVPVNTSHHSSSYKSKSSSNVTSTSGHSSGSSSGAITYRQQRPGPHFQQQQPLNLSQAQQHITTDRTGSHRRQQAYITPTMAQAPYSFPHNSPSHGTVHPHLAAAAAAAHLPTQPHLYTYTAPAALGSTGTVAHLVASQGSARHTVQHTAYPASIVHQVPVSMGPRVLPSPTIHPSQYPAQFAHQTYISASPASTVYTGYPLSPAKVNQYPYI
Sequence of UniProt Q8NCG7 (whole entry, looked up): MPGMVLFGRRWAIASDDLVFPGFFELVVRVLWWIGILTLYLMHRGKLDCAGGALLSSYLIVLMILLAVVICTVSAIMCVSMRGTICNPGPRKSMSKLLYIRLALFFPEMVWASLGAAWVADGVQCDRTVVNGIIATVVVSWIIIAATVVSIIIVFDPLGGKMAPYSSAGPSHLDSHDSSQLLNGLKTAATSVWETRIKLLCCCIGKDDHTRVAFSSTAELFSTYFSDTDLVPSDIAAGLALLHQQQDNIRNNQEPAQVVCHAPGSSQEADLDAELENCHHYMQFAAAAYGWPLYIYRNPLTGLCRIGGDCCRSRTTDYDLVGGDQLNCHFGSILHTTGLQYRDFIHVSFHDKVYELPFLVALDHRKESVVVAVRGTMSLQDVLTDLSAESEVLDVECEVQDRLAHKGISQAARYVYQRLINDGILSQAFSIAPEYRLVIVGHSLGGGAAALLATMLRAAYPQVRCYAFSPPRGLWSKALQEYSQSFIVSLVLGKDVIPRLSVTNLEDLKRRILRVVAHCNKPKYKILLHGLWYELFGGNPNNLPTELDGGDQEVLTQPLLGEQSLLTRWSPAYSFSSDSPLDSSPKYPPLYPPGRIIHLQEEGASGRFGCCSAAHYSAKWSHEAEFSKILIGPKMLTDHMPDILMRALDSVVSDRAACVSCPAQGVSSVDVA
Sequence of UniProt Q13882 (whole entry, looked up): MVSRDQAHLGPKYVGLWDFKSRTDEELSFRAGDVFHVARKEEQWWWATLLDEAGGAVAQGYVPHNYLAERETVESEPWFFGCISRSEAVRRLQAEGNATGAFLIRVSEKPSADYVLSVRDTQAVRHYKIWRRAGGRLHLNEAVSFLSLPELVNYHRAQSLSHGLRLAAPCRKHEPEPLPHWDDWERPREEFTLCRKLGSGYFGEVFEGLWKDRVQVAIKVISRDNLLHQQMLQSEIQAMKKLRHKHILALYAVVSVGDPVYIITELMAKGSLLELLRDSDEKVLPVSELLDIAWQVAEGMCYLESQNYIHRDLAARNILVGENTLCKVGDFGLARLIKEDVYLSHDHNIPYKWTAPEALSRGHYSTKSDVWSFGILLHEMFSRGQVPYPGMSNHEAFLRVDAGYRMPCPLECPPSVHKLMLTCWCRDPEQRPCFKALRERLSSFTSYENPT
Sequence of UniProt P07197 (whole entry, looked up): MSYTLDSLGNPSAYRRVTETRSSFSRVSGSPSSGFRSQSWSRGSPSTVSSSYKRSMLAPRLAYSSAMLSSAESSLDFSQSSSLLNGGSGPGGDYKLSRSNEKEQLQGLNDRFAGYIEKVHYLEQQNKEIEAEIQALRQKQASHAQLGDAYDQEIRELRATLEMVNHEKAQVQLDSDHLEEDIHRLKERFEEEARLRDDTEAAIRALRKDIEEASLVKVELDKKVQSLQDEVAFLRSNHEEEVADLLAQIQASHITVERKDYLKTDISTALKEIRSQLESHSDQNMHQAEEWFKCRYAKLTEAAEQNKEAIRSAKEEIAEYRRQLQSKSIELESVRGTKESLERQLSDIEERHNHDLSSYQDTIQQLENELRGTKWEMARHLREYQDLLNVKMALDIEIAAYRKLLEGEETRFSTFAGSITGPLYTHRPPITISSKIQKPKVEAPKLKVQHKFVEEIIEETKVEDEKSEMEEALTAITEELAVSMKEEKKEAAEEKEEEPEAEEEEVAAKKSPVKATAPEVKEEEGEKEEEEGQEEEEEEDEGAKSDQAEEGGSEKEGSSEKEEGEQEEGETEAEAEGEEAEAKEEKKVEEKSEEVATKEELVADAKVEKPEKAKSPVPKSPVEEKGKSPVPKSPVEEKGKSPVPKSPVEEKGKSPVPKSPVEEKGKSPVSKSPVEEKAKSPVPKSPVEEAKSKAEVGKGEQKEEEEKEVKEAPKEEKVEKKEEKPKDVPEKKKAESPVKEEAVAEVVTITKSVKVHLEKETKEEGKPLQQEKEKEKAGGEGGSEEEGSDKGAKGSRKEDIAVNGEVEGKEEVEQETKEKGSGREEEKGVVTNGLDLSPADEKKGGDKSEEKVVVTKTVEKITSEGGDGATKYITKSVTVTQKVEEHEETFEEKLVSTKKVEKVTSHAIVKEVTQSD
Sequence of UniProt Q16659 (whole entry, looked up): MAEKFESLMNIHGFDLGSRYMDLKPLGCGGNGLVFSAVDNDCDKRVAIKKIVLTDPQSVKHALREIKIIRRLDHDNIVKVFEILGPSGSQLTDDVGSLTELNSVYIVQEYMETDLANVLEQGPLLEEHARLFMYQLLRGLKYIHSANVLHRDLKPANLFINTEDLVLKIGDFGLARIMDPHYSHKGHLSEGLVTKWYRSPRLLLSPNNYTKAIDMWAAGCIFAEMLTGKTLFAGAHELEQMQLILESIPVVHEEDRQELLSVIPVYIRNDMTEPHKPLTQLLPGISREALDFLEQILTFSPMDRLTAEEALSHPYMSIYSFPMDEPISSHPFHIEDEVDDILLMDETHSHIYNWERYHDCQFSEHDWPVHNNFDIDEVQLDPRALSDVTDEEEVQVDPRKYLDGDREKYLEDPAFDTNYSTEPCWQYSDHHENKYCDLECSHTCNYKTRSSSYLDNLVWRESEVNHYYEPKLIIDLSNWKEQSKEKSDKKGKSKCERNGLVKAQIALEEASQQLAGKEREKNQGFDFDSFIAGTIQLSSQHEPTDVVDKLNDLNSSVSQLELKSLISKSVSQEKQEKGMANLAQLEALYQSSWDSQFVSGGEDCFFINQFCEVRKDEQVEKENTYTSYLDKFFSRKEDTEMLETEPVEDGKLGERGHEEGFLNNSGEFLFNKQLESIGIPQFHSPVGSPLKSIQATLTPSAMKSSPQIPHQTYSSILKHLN
Sequence of UniProt Q06187 (whole entry, looked up): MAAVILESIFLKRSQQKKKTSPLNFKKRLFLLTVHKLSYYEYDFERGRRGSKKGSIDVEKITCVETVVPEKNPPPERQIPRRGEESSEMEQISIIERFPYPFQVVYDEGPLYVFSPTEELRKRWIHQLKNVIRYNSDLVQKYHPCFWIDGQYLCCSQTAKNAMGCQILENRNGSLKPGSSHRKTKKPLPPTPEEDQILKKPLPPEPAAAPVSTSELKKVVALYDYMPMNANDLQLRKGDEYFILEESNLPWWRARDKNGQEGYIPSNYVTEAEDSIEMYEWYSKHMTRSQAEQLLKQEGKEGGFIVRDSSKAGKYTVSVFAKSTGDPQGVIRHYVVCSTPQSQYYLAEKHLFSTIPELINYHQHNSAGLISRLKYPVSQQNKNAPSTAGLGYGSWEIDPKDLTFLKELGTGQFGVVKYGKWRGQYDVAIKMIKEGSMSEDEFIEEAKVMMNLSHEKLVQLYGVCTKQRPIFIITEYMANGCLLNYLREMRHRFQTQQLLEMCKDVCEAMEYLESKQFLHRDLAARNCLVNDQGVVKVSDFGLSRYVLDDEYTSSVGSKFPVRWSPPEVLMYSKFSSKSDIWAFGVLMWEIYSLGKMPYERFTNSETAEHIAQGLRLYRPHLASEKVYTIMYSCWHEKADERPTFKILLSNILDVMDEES

C[C@H]1CN(c2n[nH]c3nc(N[C@H]4CC[C@H](NS(=O)(=O)CCC(F)(F)F)CC4)ncc23)CCO1  remaining binding (Neurofilament medium polypeptide (Homo sapiens, UniProt P07197); Kinobeads competition, item: NEFM; 0.16 µM, unit not given; baseline: vehicle): 0.89
O=C(Nc1cccnn1)N1CCC(=Cc2cccc(Oc3ccc(C(F)(F)F)cn3)c2)CC1  inhibition (Homeodomain-interacting protein kinase 2 (HIPK2, Homo sapiens, UniProt Q9H2X6); kinase activity, inhibitor; 10 µM, added: myelin basic protein substrate): 1%
[2H]c1c([2H])c([C@]2([2H])CCCN2C(=O)C(C)(C)Oc2ccc3cn[nH]c3c2)c([2H])c([2H])c1C([2H])([2H])[2H]  remaining binding (Mitogen-activated protein kinase 6 (MAPK6, Homo sapiens, UniProt Q16659); KINOMEscan; 1 µM; baseline: DMSO control): 83%
COc1cc(Nc2ncc(F)c(Nc3ccc4c(n3)NC(=O)C(C)(C)O4)n2)cc(OC)c1OC  inhibition (Tyrosine-protein kinase BTK (BTK, Homo sapiens, UniProt Q06187); KINOMEscan; 10 µM): 5%
CN1CCN(c2cc(-c3ccncc3)c(-c3ccc4ccccc4c3)nn2)CC1  inhibition (Succinate receptor 1 (SUCNR1, Homo sapiens, UniProt Q9BXA5); antagonist, FLIPR; 10 µM): 1.5%
O=C(Nc1cnccc1Cl)N1CCN(Cc2ccc3c(c2)OC(F)(F)O3)CC1  inhibition (Prostaglandin D2 receptor (PTGDR, Homo sapiens, UniProt Q13258); radioligand binding, inhibitor; 10 µM, human, added: [3H]prostaglandin D2): -2%
COc1ccc(N2C(=O)N(c3c(C)cccc3Cl)Cc3cnc(Nc4ccc(C5CCN(C)CC5)cc4OC)nc32)nc1  inhibition (Protein-tyrosine kinase 6 (PTK6, Homo sapiens, UniProt Q13882); kinase activity, inhibitor; 0.5 µM, kinase BRK): 103%
O=C(c1ccc(Cl)cc1)N1CCN2C(=O)N(OC(=O)N3CCOc4ccccc43)C(=O)C2C1 (centres unmarked)  median ratio (Diacylglycerol lipase-beta (Homo sapiens, UniProt Q8NCG7); enzyme activity, inhibitor, MS-based ABPP; SW-620 in situ; 10 µM, 2 h, 37 °C; baseline: compound over DMSO, lower = stronger inhibition): 1.1

A few entries again:
O=C(Nc1cnccc1Cl)N1CCN(Cc2ccc3c(c2)OC(F)(F)O3)CC1  inhibition (Prostaglandin D2 receptor (PTGDR, Homo sapiens, UniProt Q13258); radioligand binding, inhibitor; 10 µM, human, added: [3H]prostaglandin D2): -2%
